Assay results from different studies.
Numbers after ± are the reported error.
Cell line: MCF7

CC(C)(C)OC(=O)N1CCC(Oc2ccc(Cl)cc2C(=O)N[C@@H](Cc2ccccc2)C(=O)Nc2ccc([N+](=O)[O-])cc2Cl)CC1 — antiproliferative activity (up to 10 µM, 72 h): inactive
Cc1n[nH]c2nc(-c3ccc(Cl)cc3)c3c(NC(=O)c4ccccc4)nnc-3n12 — cell growth (SRB; 10 µM, NCI60 single-dose screen; reference: untreated): 89%
CC(=O)Nc1ccc(/C(C)=N/N=c2\sc(C(C)=O)nn2-c2ccc(C)cc2)cc1 — cytotoxicity (MTT; 2.5 µM): 65.4%
COc1ccc(OC)c(-c2nc3ccc(-c4nc5ccc(N6CCN(C)CC6)cc5[nH]4)cc3[nH]2)c1 — growth percent (SRB; 10 µM, 48 h): 75.5%
C[C@@H]1CC[C@@H]([C@](C)(O)CNCc2cccc3ccccc23)[C@H](OCc2ccccc2)C1 — IC50 (cell growth, inhibitor, MTT; 72 h): 4.26 µM
O=C1Nc2c(C(F)(F)F)cccc2[C@@]1(c1ccc(O)cc1)N1CC(F)(F)C(F)(F)C1 — selectivity ratio (cell viability, Alamar blue; 72 h; reference: IC50 ERα− lines over MCF7): ≥ 3500
C=CC(=O)c1cccnc1Nc1cc(C(F)(F)F)ccc1OCc1ccccc1 — TEAD reporter activity (firefly luciferase reporter; 50 µM, 6 h; reference: vehicle): 26.3 ± 1.4%
CC(=O)c1nn(-c2ccc(Cl)cc2)/c(=N/N=C(\C)c2ccc(NC(=O)c3ccc(Cl)cc3)cc2)s1 — toxicity (5 µM): 50.7%
CCCCN1CCN(c2ccc3[nH]c(-c4ccc5[nH]c(-c6ccc(OCC)c(OCC)c6)nc5c4)nc3c2)CC1 — growth percent (SRB; 10 µM, 48 h): -69.6%
C[C@H](Nc1ccc2c(c1)OCCn1cc(N3C(=O)OC[C@H]3C(F)F)nc1-2)C(N)=O — GR50 (resazurin growth rate inhibition; 72 h): 142 nM
CCOC(=O)c1nn(-c2cccc(Cl)c2)/c(=N/N=C(\C)c2ccc(NC(=O)c3ccc(Cl)cc3)cc2)s1 — cytotoxicity (MTT; 0.312 µM): 89.7%
OCc1ccc(Nc2ccc3c(Nc4cccc(C(F)(F)F)c4)ncnc3c2)cc1 — necrotic cells (annexin V/DAPI; concentration not given, 24 h): 8.27%
C=CC(=O)c1cccnc1Nc1cc(NC(=O)c2ccccc2)ccc1OC — TEAD reporter activity (firefly luciferase reporter; 100 µM, 6 h; reference: vehicle): 23.9 ± 6.3%
CC/C(=C(\c1ccc(O)cc1)c1ccc(OCCN(C)C)cc1)c1ccccc1 — cell growth (0.1 µM, 5 days; reference: vehicle): 74%
C=CC(=O)c1ccccc1Nc1cc(C(F)(F)F)ccc1OC — TEAD reporter activity (firefly luciferase reporter; 50 µM, 6 h; reference: vehicle): 56 ± 4.2%
CC/C(=C(\c1ccccc1)c1ccc(OCCN(C)C)cc1)c1ccccc1 — log2 fold change (RNA-seq, item: SGK3 mRNA; 1 µM, 24 h, E2-induced gene; reference: DMSO vehicle): -1.56
CN1CCN(c2ccc3[nH]c(-c4ccc5[nH]c(-c6ccc(C(F)(F)F)cc6)nc5c4)nc3c2)CC1 — growth percent (SRB; 10 µM, 48 h): 4.4%
C=C1CN(S(=O)(=O)c2ccc(C)cc2)CCCN(CCc2ccccc2)CCCN(S(=O)(=O)c2ccc(C)cc2)C1.Cl — mammosphere formation (1 µM, 48 h, added: progranulin 1 µg/mL): inhibited
COc1cccc2c1C(=O)c1c(O)c3c(c(O)c1C2=O)C[C@@](O)(C(=O)CO)C[C@@H]3O[C@H]1C[C@H](N)[C@H](O)[C@H](C)O1 — IC50 (cell viability, MTT; 24 h): 0.44 ± 0.03 µg/mL
Cc1cc(C)n(-c2nc(-c3ccc(Cl)cc3)c3c(NC(=O)c4ccccc4)nnc-3[nH]2)n1 — cell growth (SRB; 10 µM, NCI60 single-dose screen; reference: untreated): 88.2%
COc1cccc2c1C(=O)c1c(O)c3c(c(O)c1C2=O)C[C@@](O)(C(=O)CO)C[C@@H]3O[C@H]1C[C@H](N)[C@H](O)[C@H](C)O1 — selectivity index (reference: BJ1 IC50 over MCF7 IC50): 0.6
CCN(CC)c1ccc(C=NNC(=O)CSc2nc3ccccc3c(=O)n2Cc2ccc(S(N)(=O)=O)cc2)c(O)c1 — TGI (NCI five-dose screen): > 100 µM
CCOC(=O)c1nn(-c2cccc(Cl)c2)/c(=N/N=C(\C)c2ccc(NC(=O)c3ccccc3)cc2)s1 — cytotoxicity (MTT; 1.25 µM): 97.4%
C=CC(=O)c1cccnc1Nc1cc(C(F)(F)F)ccc1OC — TEAD reporter activity (firefly luciferase reporter; 50 µM, 6 h; reference: vehicle): 25.5 ± 0.8%
CC(=O)c1nn(-c2ccccc2Cl)/c(=N/N=C(\C)c2ccc(NC(=O)c3ccccc3)cc2)s1 — cytotoxicity (MTT; 0.625 µM): 93.4%
C[C@@H]1CC[C@@H]([C@](C)(O)Cn2cnc3ccccc32)[C@H](OCc2ccccc2)C1 — IC50 (cell growth, inhibitor, MTT; 72 h): 7.02 µM
COc1ccc(-n2nc(C(C)=O)s/c2=N\N=C(/C)c2ccc(NC(=O)c3ccccc3)cc2)cc1 — toxicity (2.5 µM): 97.5%
CC(=NN=c1sc(N=Nc2ccccc2)c(C)n1C)c1c(O)c2ccccc2oc1=O — selectivity index (cell growth, MTT; reference: IC50 BJ-1 over MCF7): > 3.09
CC(=O)c1nn(-c2ccc(C)cc2)/c(=N/N=C(\C)c2ccc(NC(=O)c3ccccc3)cc2)s1 — cytotoxicity (MTT; 0.625 µM): 95.2%
CC(=O)c1nn(-c2ccc(Cl)cc2)/c(=N/N=C(\C)c2ccc(NC(=O)c3ccccc3)cc2)s1 — toxicity (10 µM): 95.2%
CCCC(CCC)C(=O)OCc1cn(-c2c3ccccc3nc3ccccc23)nn1 — growth percentage (NCI60 single-dose screen; 10 µM): 97.2%
COc1ccc(C(F)(F)F)cc1Nc1ncccc1C(=O)O — TEAD reporter activity (firefly luciferase reporter; 25 µM, 6 h; reference: vehicle): 81.3 ± 6%
CC(=NN=C1NC(=O)C(C)S1)c1c(O)c2ccccc2oc1=O (centres unmarked) — selectivity index (cell growth, MTT; reference: IC50 BJ-1 over MCF7): > 3.65
O=C(O)c1ccccc1Nc1cccc(C(F)(F)F)c1 — TEAD reporter activity (firefly luciferase reporter; 25 µM, 6 h; reference: vehicle): 88.9 ± 3.1%
C#C[C@@]1(O)[C@@H](CO)O[C@@H](n2cc(I)c3c(N)ncnc32)[C@@H]1O — TGI (SRB; NCI-60 screen): > 100 µM
C=CC(=O)N1CCC(COCC(=O)N2CCN(c3nc(-c4cnc(N)nc4C(F)F)nc(N4CCOC[C@@H]4C)n3)CC2)CC1 — IC50 (western blot, item: phospho-PKB/Akt Ser473; 2 h): 0.0082 µM
C=CC(=O)c1cccnc1Nc1cccc(C(F)(F)F)c1 — inhibition (reporter gene, item: TEAD luciferase; 100 µM): 95%
CC(=NN=c1[nH]c(C)cs1)c1c(O)c2ccccc2oc1=O — selectivity index (cell growth, MTT; reference: IC50 BJ-1 over MCF7): > 2.9
O=[N+]([O-])c1cc(Br)c(O)c(C=NNc2ccc(C(F)(F)F)cc2)c1 — late apoptotic or dead cells (annexin V; IC50, 24 h): 16.1%
C=CC(=O)c1cccnc1Nc1cc(C)ccc1OC — TEAD reporter activity (firefly luciferase reporter; 25 µM, 6 h; reference: vehicle): 94.7 ± 5.5%
CCn1c(C)c(N=Nc2ccc(C)cc2)sc1=NN=C(C)c1c(O)c2ccccc2oc1=O — selectivity index (cell growth, MTT; reference: IC50 BJ-1 over MCF7): > 5.62
CC(C)(C)OCC(NC(=O)c1cc(Cl)ccc1OCCNC(=O)OC(C)(C)C)C(=O)Nc1ccc([N+](=O)[O-])cc1Cl (stereo in doubt) — antiproliferative activity (up to 10 µM, 72 h): inactive
CCn1cc(-c2cc(Cn3ccnc3)cc3c2CCN([C@H](c2cc(OC)ccn2)C2CC2)C3=O)c(C(F)(F)F)n1 — EC50 (cell growth, inhibitor; 120 h): > 30 µM
COc1ccc(-n2nc(C(C)=O)s/c2=N\N=C(/C)c2ccc(NC(=O)c3ccc(C)cc3)cc2)cc1 — toxicity (0.312 µM): 82.3%

Some of these lines once more:
CC/C(=C(\c1ccc(O)cc1)c1ccc(OCCN(C)C)cc1)c1ccccc1 — cell growth (0.1 µM, 5 days; reference: vehicle): 74%
CC/C(=C(\c1ccccc1)c1ccc(OCCN(C)C)cc1)c1ccccc1 — log2 fold change (RNA-seq, item: SGK3 mRNA; 1 µM, 24 h, E2-induced gene; reference: DMSO vehicle): -1.56
CC(C)(C)OCC(NC(=O)c1cc(Cl)ccc1OCCNC(=O)OC(C)(C)C)C(=O)Nc1ccc([N+](=O)[O-])cc1Cl (stereo in doubt) — antiproliferative activity (up to 10 µM, 72 h): inactive
Cc1n[nH]c2nc(-c3ccc(Cl)cc3)c3c(NC(=O)c4ccccc4)nnc-3n12 — cell growth (SRB; 10 µM, NCI60 single-dose screen; reference: untreated): 89%
